# Published values from different studies.
# Numbered parts are unrelated; each lists some results of a single study.

# Study 1
# Target: Histone acetyltransferase KAT6A, winged helix 1, GST fusion (KAT6A, Homo sapiens, UniProt Q92794, residues 1-85)
# Method: protein binding microarray
# Molecule type: double-stranded DNA, one strand shown
# Sample: in vitro
# Concentration: not given
# Setting: 8-mer, flanks averaged, mean of 2 arrays, mostly near background
# Relative to: not given
# Direction: higher = stronger binding
# Target sequence (chain): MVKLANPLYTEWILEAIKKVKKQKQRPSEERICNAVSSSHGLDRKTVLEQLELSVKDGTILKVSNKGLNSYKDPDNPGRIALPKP
Sequence,E-score
CGTTAACG,0.206
AGCCTGTG,-0.222
GACAGACC,-0.149
AGTAGAGG,-0.264
AATGACTA,-0.23
CTTGCATC,-0.156
AATGGGCA,-0.219
GATTACAC,-0.0234
GTGTCACA,-0.0261

# Study 2
# Target: Prothrombin, mature alpha-thrombin (F2, Homo sapiens, UniProt P00734)
# Method: aptamer microarray, sandwich
# Molecule type: DNA with 2'F-ANA
# Sample: in vitro
# Concentration: 200 nM
# Setting: whole 15-mer aptamer, many near background
# Added: Cy3 exosite-II aptamer, 400 nM
# Direction: higher = stronger binding
# Sequence: GGTTGGTGTGGTTGG
Modification,mean fluorescence intensity [a.u.]
2'F-ANA at 1 2 9 10 13,51.1
2'F-ANA at 1 3 4 8 11 13,185
2'F-ANA at 1 2 3 4 5 6 7 9 10 11 12,50.7
2'F-ANA at 1 2 3 7 14 15,85.1
2'F-ANA at 5 7 9 10 11 12 13 14,59.7
2'F-ANA at 2 4 5 12 14 15,62.3

# Study 3
# Target: Fragile X messenger ribonucleoprotein 1, C-terminal low-complexity region (Fmr1, Mus musculus, UniProt P35922)
# Method: RNA Bind-n-Seq
# Molecule type: RNA
# Sample: in vitro
# Concentration: 200 nM
# Setting: whole 134-nt RNA, ends assumed
# Added: 150 mM LiCl
# Relative to: input library
# Direction: higher = stronger binding
# Library: 7-deaza-guanosine replaces G
# Constant ends, left off below: GGGAGUUCUACAGUCCGACGAUC … UGGAAUUCUCGGGUGUCAAGG
Sequence,log2 enrichment
UGAAGCGAGAAGCUGCCCUACCCCCAGUGAGCCCCCUGAAGGCGGCUCUCUCUGAGGAGGAGUUAGAGAAGAAAUCCAAGGCUAUCAUUG,-0.372
UCCUGUGCUACACAUCGUAUGUACCGAAUCAAAUUUUUAAAUUUUUAAACCCCCCCAAAAAAGUAUUAUGUUACGCCGUUCGGAUCUGCA,2.08
GCAGGAAGUAAAAACACAUGGAAAUGCUUCGGAUAGUGGCAGGGGUGGGGGUUGCUAAGGAAAGGGUGGGAUGGGAGUGGGUAAAGAGUU,1.71
CUCAAGUCCUGUGCUACACAUCGUAUGUACCGAAUCGGUGGGGUGGGGUGGGGAAAGUAUUAUGUUACGCCGUUCGGAUCUGCACUUCCA,-0.178
UGGCCCUGGUGGCAUGCGGGGAGGAAGAGGUGGCCUCAUGGAUCGUGGUGGUCCCGGUGGAGUGUUCAGAGGUGGCCGUGGUGGAGACAG,-0.0963
ACCAUGCAGGUGGGCAUCUUUGGGAAGUGGGGCAAGGGGGGGAUAGGGAGGGGGGUAUCACUUUGGGAACAGGUGGUCCCAGGUCGUUUC,1.47
CACAGACAACACGCACCCACACAGACACAGAGGGAAGGGGUUGGGAUGGGGACAGGGUCCACAGCAGGGCGGGGUAGGACCCCAGCCCCU,0.153
AGUCCUGUGCUACACAUCGUAUGUACCGAAUCGGUUUUUGGGGUUUUUGGUUUUUGGGAAAGUAUUAUGUUACGCCGUUCGGAUCUGCAC,-1.3
CCUCACCACUCCUUUCUCUUUCAUUCAGUUCCGCUCAGUGGACGAGACUACCCAGGCUAUGGCCUUUGAUGGCAUCAUCUUCCAGGGCCA,1.05

# Further values, each from its own experiment
Substance,target,assay,system,conditions,how to read,measurement,result
"PhoQ, residues 284 288 289 292 302 303 SCKMEA","PhoP, residues 12 14 15 18 19 HHYTI (Escherichia coli, UniProt P23836)","Sort-seq, item: YFP reporter",E. coli,"PhoQ-PhoP variant library, added: 10 µM Mg2+","relative to: high Mg2+ state, higher = stronger signaling",fold induction,8.26
